Measurements pooled from the literature.
Every numbered part comes from another study and shows a few of its results, in no order. “And” joins repeats or separate records; there may be more than shown.

Series 1
Target: Interferon regulatory factor 7, full length, phosphomimetic (IRF7, Homo sapiens, UniProt Q92985, residues 1-503, S471D/S472D/S475D/S476D/S477D/S483D/S484D/S487D)
Method: protein-binding microarray
Form: double-stranded DNA, one strand shown
Medium: in vitro
Concentration: 2200 nM top
Setting: 60-bp whole probe
With: salmon DNA 0.4 mg/ml
Reference: random background probes
Reading: higher = stronger binding
Quantity: fitted relative affinity
Residues (chain): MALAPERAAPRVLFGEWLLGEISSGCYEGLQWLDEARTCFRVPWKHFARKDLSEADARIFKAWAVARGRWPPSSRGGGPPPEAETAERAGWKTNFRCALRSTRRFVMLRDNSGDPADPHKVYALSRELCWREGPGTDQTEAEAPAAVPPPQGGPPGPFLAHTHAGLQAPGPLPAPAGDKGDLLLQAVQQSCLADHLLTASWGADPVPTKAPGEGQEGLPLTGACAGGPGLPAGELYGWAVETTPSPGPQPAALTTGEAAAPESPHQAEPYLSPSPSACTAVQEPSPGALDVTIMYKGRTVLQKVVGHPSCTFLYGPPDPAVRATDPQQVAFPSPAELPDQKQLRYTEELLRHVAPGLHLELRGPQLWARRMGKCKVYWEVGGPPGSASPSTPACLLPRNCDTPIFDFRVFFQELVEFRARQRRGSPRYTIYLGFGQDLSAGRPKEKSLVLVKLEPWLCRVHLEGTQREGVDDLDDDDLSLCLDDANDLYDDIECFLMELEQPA
GCCTAGCACTCATCTTTCCCTGCCCCACTGTGCTAGGTCTTGATTCGCTTGACGCTGCTG: 1.94 z-score
GCCTAGCACTTAGGTTTCGGGTATCCGTTAGTGCTAGTCTTGATTCGCTTGACGCTGCTG: 6.07 z-score
GCCTAGCACTTAGGTATCGATTTCGGTTAGTGCTAGGTCTTGATTCGCTTGACGCTGCTG: 3.88 z-score
GCCTAGCACTCATATATACACTTATGACTGTGCTAGGTCTTGATTCGCTTGACGCTGCTG: 0.866 z-score

Series 2
Target: Histone acetyltransferase KAT6A, both winged helices, GST fusion (KAT6A, Homo sapiens, UniProt Q92794, residues 1-181)
Method: protein binding microarray
Form: double-stranded DNA, one strand shown
Medium: in vitro
Concentration: not given
Setting: 8-mer, flanks averaged, mean of 2 arrays, mostly near background
Reference: not given
Reading: higher = stronger binding
Quantity: E-score
Residues (chain): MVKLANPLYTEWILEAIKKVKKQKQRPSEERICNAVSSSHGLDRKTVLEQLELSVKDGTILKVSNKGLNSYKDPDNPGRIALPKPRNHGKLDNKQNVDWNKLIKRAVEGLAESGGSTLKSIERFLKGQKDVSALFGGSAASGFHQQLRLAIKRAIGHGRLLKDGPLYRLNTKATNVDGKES
ACAGCGGA: 0.0528
AACCGCGA: 0.263
CTAGAAAC: -0.168
CGATTACG: 0.0408
ACCAAGTG: -0.185

Series 3
Target: Ras GTPase-activating protein-binding protein 1, RRM domain (G3BP1, Homo sapiens, UniProt Q13283)
Chain of UniProt Q13283 (whole entry, looked up): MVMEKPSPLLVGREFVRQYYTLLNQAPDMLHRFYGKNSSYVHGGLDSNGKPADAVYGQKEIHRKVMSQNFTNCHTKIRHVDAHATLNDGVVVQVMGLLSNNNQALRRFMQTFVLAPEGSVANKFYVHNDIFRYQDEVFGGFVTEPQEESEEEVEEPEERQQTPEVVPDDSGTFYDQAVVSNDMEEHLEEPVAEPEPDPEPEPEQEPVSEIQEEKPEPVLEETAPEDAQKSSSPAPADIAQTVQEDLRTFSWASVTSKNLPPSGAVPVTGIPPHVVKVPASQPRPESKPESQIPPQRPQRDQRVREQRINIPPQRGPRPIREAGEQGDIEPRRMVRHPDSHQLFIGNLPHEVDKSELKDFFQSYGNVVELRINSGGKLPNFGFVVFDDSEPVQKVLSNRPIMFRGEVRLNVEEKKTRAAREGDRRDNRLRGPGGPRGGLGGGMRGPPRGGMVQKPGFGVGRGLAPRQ
Method: RNA Bind-n-Seq
Form: RNA
Medium: in vitro
Concentration: 1 µM
Setting: whole 134-nt RNA, ends assumed
With: 150 mM KCl
Reference: input library
Reading: higher = stronger binding
Quantity: log2 enrichment
GGGAGUUCUACAGUCCGACGAUCCCUCAAGUCCUGUGCUACACAUCGUAUGUACCGAAUCGGAAGGGGAAGGAAGGAAAGUAUUAUGUUACGCCGUUCGGAUCUGCACUUCCAUGGAAUUCUCGGGUGUCAAGG: -0.324
GGGAGUUCUACAGUCCGACGAUCCUCAAGUCCUGUGCUACACAUCGUAUGUACCGAAUCGGAAGGGGAAGGGGAAGGAAAGUAUUAUGUUACGCCGUUCGGAUCUGCACUUCCUGGAAUUCUCGGGUGUCAAGG: -0.34
GGGAGUUCUACAGUCCGACGAUCGUCCUGUGCUACACAUCGUAUGUACCGAAUCGGGGUUUGGGGUUUGGGGAAAAAGGGGAAAGUAUUAUGUUACGCCGUUCGGAUCUGCACUGGAAUUCUCGGGUGUCAAGG: 1.66

Mixed results
PhoQ, residues 284 288 289 292 302 303 NLMGRA
fold induction (PhoP, residues 12 14 15 18 19 LWHCS (Escherichia coli, UniProt P23836); Sort-seq, refers to: YFP reporter; E. coli; PhoQ-PhoP variant library, with: 10 µM Mg2+; reference: high Mg2+ state, higher = stronger signaling): 23.5 and 9.71

Repeated from above (series 3):
GGGAGUUCUACAGUCCGACGAUCCUCAAGUCCUGUGCUACACAUCGUAUGUACCGAAUCGGAAGGGGAAGGGGAAGGAAAGUAUUAUGUUACGCCGUUCGGAUCUGCACUUCCUGGAAUUCUCGGGUGUCAAGG: -0.34
